Measured values of several laboratories.
A part holds a random share of what one study measured.

Block 1 — technique: protein-binding microarray; molecule type: double-stranded DNA, one strand shown; sample: in vitro; concentration: 940 nM top; notes: 60-bp whole probe; with: salmon DNA 0.4 mg/ml; baseline: random background probes; direction: higher = stronger binding; constant ends, left off below: GCCTAGCAC … GTCTTGATTCGCTTGACGCTGCTG
Target: Interferon regulatory factor 5, full length, phosphomimetic (IRF5, Homo sapiens, UniProt Q13568-2, residues 1-514, S451D/S453D/S456D/S462D)
Oligonucleotide | fitted relative affinity [z-score]
GGGTGGGAGCCGAAGACGCCGTGCTAG | -0.5
TTAGATTTCGGGACTGCATTAGTGCTA | 0.808
AGAGCCATCAATATCTGCAAGTGCTAG | -0.306
GACGTTCTCAGTTTCGAGACGTGCTAG | 4.64
GACGGTGTCGGACTGGGGACGTGCTAG | -0.144

Block 2 — technique: RNA Bind-n-Seq; molecule type: RNA; sample: in vitro; concentration: 20 nM; notes: 6-mer, flanks averaged, single round; with: 150 mM LiCl; baseline: input library; direction: higher = stronger binding
Target: TAR DNA-binding protein 43, full length, His tag (TARDBP, Homo sapiens, UniProt Q13148, residues 1-414)
Oligonucleotide | 6-mer enrichment (R)
AGUGCC | 0.99
UUAAAG | 0.911
CCCCAC | 1.18
UUGGCC | 1.04
GAGAGA | 1.09

Block 3 — technique: RNA Bind-n-Seq; molecule type: RNA; sample: in vitro; concentration: 365 nM; baseline: no-protein control; direction: higher = stronger binding
Target: RNA binding protein fox-1 homolog 2, RRM domain, GST-SBP tag (RBFOX2, Homo sapiens, UniProt O43251-10, residues 100-194)
Notes: natural RNA segment, single round, ends assumed
Residues (chain): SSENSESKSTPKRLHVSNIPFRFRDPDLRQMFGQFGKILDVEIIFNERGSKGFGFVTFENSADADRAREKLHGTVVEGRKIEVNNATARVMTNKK
Oligonucleotide | RBNS enrichment (R)
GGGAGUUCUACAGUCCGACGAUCAUUUUUCCAAGCUGAUUUAUUAGUUAUAACCAGUAAUACACACAUCAUCUAGCUUUUCAUUCUUUAAGUAAGGGGGAAAAAAUCACUAAACAAUAAAGUUGGCUAGACCUUGGAAUUCUCGGGUGCCAA | 0.675
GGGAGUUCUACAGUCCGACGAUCACUUGUUAAUUUAGUUUUCUCCUUAGAGACUUUGAGACCCUUAAGAGACAAGAUUGAGAAAGAGCCAUGUGGCUUGGCUCUAGAAACGUCAUUAUCAUUAGGACCAUCAGUGGAAUUCUCGGGUGCCAA | 0.48
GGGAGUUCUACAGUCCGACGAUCCCCAUUUUAAGGUAAUCUCAUUCUUCAAAAUGUUCCAUAGAAUCCUCCAAAUUCCCCCAGCAGACUUCUACCCUCGCCAAGUUCCCAAAACCCACUCAGCAAAGUUGCCAUGGAAUUCUCGGGUGCCAA | 0.678
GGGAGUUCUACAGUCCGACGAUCUAGCAGACAGGCAGGGGAUGCAAACGGCUGCCGGGCCACCUCUCCCCUCUCACAAACCAUAUAAACACAGGGAGGGGCUUUCUCACCACUUCUGAGGAGACUGUACAGCCUGGAAUUCUCGGGUGCCAA | 0.724
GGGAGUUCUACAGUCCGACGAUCAACAUCAGGCCAGGACACCAUUUAUUUAACCAAGUAAUGGAGGAGAGUGAAACAUUUUCCAAGGCCUUAUUUCUUUUUCAGAAUGCUUUAAGUGUUGAUUAUAUGUGCUGUGGAAUUCUCGGGUGCCAA | 0.284
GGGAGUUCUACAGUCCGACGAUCUCUCCACUCUCCUGCCUUCAGCCAUAGCAAAGAAUCCUUCCAAAAUCAAACUCUUCACUUUUUUGACUCAAGUGUUGUUGUUCAGUCUCUCGCGUGUCAAUGUGGUCAUGUGGAAUUCUCGGGUGCCAA | 0.935

Further values, each from its own experiment
Molecule | target | assay | test system | conditions | scale | measurement | result
PhoQ, residues 284 288 289 292 302 303 TAVSDG | PhoP, residues 12 14 15 18 19 SQCLL (Escherichia coli, UniProt P23836) | Sort-seq, measured: YFP reporter | E. coli | PhoQ-PhoP variant library, with: 10 µM Mg2+ | baseline: high Mg2+ state, higher = stronger signaling | fold induction | 11
